Results from different studies.
Protocols differ between the studies behind these lines.
Organism: Enterobacter cloacae

The MIC of `CC(C)C[C@H](NC(=O)[C@H](CC(N)=O)NC(=O)[C@H](CCCNC(=N)N)NC(=O)[C@@H](CC(C)C)NC(=O)[C@H](Cc1ccc(C(F)(F)F)cc1)NC(=O)[C@H](CC(=O)O)NC(=O)[C@H](CCCCN)NC(=O)[C@@H](CC(C)C)NC(=O)[C@H](CCCNC(=N)N)NC(=O)[C@H](CCC(N)=O)NC(=O)[C@@H](NC(=O)[C@@H](CC(C)C)NC(=O)[C@H](CCCNC(=N)N)NC(=O)[C@H](CCCCN)NC(=O)[C@H](Cc1ccc2ccccc2c1)NC(=O)CN)C(C)C)C(=O)N[C@H](C(N)=O)C(C)C` is reported as 6.2 to 12.5 µM (broth microdilution; B2366-12).
For `CC(C)CS[C@H]1[C@H](O)[C@@H](N)[C@@H](O[C@H]2[C@H](O[C@@H]3O[C@H](CO)[C@@H](O[C@H]4O[C@@H](CN)[C@@H](O)[C@H](O)[C@H]4N)[C@H]3O)[C@@H](O)[C@H](N)C[C@@H]2N)O[C@@H]1CO`, the MIC was 2 µg/mL (AG290).
The MIC of `CC[P+](CC)(CC)[Au-][S]c1ccc(SCC(=O)N[C@H]2[C@H](OC(C)=O)O[C@H](COC(C)=O)[C@@H](OC(C)=O)[C@@H]2OC(C)=O)cc1` is reported as 152 µM (NCTC 13405).
The MIC of `c1ccc(CN2CCOCCOCCN(CCCCCCCCCCN3CCOCCOCCN(CCCCCCCCCCN4CCOCCOCCN(Cc5ccccc5)CCOCCOCC4)CCOCCOCC3)CCOCCOCC2)cc1` is reported as 26 µM (meropenem-resistant).
The MIC of `CC(C)C[C@H](NC(=O)[C@H](CC(N)=O)NC(=O)[C@H](CCCNC(=N)N)NC(=O)[C@@H](CC(C)C)NC(=O)[C@H](Cc1ccc2ccccc2c1)NC(=O)[C@H](CC(=O)O)NC(=O)[C@H](CCCCN)NC(=O)[C@@H](CC(C)C)NC(=O)[C@H](CCCNC(=N)N)NC(=O)[C@H](CCC(N)=O)NC(=O)[C@@H](NC(=O)[C@@H](CC(C)C)NC(=O)[C@H](CCCNC(=N)N)NC(=O)[C@H](CCCCN)NC(=O)[C@H](Cc1ccccc1)NC(=O)CN)C(C)C)C(=O)N[C@H](C(N)=O)C(C)C` is reported as 12.5 µM (broth microdilution; B2366-12).
The MIC of `NC[C@@H]1O[C@H](O[C@H]2[C@@H](O)[C@H](O[C@@H]3[C@@H](O)[C@H](N)C[C@H](N)[C@H]3O[C@H]3O[C@H](CO)[C@@H](CCO)[C@H](O)[C@H]3N)O[C@@H]2CO)[C@H](N)[C@@H](O)[C@@H]1O` is reported as 1 to 2 µg/mL (AG290).
With `CC(C)C[C@H](NC(=O)[C@H](CC(N)=O)NC(=O)[C@H](CCCNC(=N)N)NC(=O)[C@@H](CC(C)C)NC(=O)[C@H](Cc1ccccc1)NC(=O)[C@H](CC(=O)O)NC(=O)[C@H](CCCCN)NC(=O)[C@@H](CC(C)C)NC(=O)[C@H](CCCNC(=N)N)NC(=O)[C@H](CCC(N)=O)NC(=O)[C@@H](NC(=O)[C@@H](CC(C)C)NC(=O)[C@H](CCCNC(=N)N)NC(=O)[C@H](CCCCN)NC(=O)[C@H](Cc1ccccc1)NC(=O)CN)C(C)C)C(=O)N[C@H](C(N)=O)C(C)C` the MIC was 25 µM (broth microdilution; B2366-12).
For `COc1c(NC(=O)c2ccc(NC(=O)c3ccc(NC(=O)[C@H](CC#N)NC(=O)c4ccc(NC(=O)/C(C)=C/c5ccc(O)cc5)cc4)cc3)c(OC)c2O)ccc(C(=O)O)c1O`, the MIC was greater than 64 µg/mL (microbial growth; DSM30054).
With `CCCS[C@H]1[C@H](O)[C@@H](N)[C@@H](O[C@H]2[C@H](O[C@@H]3O[C@H](CO)[C@@H](O[C@H]4O[C@@H](CN)[C@@H](O)[C@H](O)[C@H]4N)[C@H]3O)[C@@H](O)[C@H](N)C[C@@H]2N)O[C@@H]1CO` the MIC was 2 µg/mL (AG290).
`c1ccc(CN2CCOCCOCCN(CCCCCCCCCCCCCCN3CCOCCOCCN(CCCCCCCCCCCCCCN4CCOCCOCCN(Cc5ccccc5)CCOCCOCC4)CCOCCOCC3)CCOCCOCC2)cc1` has an MIC of 24 µM (microbial growth).
With `CC[S+]([O-])C1C(CO)OC(OC2C(N)CC(N)C(O)C2OC2OC(CO)C(OC3OC(CN)C(O)C(O)C3N)C2O)C(N)C1O` (mixture of isomers) the MIC was 64 µg/mL (AG290).
The MIC of `CC(C)C[C@H](NC(=O)[C@H](CC(N)=O)NC(=O)[C@H](CCCNC(=N)N)NC(=O)[C@@H](CC(C)C)NC(=O)[C@H](Cc1ccc(-c2ccccc2)cc1)NC(=O)[C@H](CC(=O)O)NC(=O)[C@H](CCCCN)NC(=O)[C@@H](CC(C)C)NC(=O)[C@H](CCCNC(=N)N)NC(=O)[C@H](CCC(N)=O)NC(=O)[C@@H](NC(=O)[C@@H](CC(C)C)NC(=O)[C@H](CCCNC(=N)N)NC(=O)[C@H](CCCCN)NC(=O)[C@H](Cc1ccc(-c2ccccc2)cc1)NC(=O)CN)C(C)C)C(=O)N[C@H](C(N)=O)C(C)C` is reported as 3.1 µM (broth microdilution; B2366-12).

A few entries again:
The MIC of `c1ccc(CN2CCOCCOCCN(CCCCCCCCCCN3CCOCCOCCN(CCCCCCCCCCN4CCOCCOCCN(Cc5ccccc5)CCOCCOCC4)CCOCCOCC3)CCOCCOCC2)cc1` is reported as 26 µM (meropenem-resistant).
